Experimental data pooled from the literature.
Compare with care: the assays were run in different laboratories. ± marks the error that the study gave.
Chain of UniProt P21729 (whole entry, looked up): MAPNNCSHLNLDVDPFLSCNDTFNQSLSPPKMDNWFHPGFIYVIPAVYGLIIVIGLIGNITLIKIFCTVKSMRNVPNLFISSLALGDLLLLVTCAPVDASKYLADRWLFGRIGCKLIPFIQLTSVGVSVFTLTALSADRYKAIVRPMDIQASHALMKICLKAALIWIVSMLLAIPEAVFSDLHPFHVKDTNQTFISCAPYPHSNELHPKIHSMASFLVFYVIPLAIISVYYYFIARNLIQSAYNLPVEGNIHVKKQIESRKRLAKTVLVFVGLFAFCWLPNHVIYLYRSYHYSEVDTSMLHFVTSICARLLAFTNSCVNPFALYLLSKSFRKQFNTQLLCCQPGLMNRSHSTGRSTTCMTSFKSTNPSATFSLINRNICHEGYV
Chain of UniProt Q15858 (whole entry, looked up): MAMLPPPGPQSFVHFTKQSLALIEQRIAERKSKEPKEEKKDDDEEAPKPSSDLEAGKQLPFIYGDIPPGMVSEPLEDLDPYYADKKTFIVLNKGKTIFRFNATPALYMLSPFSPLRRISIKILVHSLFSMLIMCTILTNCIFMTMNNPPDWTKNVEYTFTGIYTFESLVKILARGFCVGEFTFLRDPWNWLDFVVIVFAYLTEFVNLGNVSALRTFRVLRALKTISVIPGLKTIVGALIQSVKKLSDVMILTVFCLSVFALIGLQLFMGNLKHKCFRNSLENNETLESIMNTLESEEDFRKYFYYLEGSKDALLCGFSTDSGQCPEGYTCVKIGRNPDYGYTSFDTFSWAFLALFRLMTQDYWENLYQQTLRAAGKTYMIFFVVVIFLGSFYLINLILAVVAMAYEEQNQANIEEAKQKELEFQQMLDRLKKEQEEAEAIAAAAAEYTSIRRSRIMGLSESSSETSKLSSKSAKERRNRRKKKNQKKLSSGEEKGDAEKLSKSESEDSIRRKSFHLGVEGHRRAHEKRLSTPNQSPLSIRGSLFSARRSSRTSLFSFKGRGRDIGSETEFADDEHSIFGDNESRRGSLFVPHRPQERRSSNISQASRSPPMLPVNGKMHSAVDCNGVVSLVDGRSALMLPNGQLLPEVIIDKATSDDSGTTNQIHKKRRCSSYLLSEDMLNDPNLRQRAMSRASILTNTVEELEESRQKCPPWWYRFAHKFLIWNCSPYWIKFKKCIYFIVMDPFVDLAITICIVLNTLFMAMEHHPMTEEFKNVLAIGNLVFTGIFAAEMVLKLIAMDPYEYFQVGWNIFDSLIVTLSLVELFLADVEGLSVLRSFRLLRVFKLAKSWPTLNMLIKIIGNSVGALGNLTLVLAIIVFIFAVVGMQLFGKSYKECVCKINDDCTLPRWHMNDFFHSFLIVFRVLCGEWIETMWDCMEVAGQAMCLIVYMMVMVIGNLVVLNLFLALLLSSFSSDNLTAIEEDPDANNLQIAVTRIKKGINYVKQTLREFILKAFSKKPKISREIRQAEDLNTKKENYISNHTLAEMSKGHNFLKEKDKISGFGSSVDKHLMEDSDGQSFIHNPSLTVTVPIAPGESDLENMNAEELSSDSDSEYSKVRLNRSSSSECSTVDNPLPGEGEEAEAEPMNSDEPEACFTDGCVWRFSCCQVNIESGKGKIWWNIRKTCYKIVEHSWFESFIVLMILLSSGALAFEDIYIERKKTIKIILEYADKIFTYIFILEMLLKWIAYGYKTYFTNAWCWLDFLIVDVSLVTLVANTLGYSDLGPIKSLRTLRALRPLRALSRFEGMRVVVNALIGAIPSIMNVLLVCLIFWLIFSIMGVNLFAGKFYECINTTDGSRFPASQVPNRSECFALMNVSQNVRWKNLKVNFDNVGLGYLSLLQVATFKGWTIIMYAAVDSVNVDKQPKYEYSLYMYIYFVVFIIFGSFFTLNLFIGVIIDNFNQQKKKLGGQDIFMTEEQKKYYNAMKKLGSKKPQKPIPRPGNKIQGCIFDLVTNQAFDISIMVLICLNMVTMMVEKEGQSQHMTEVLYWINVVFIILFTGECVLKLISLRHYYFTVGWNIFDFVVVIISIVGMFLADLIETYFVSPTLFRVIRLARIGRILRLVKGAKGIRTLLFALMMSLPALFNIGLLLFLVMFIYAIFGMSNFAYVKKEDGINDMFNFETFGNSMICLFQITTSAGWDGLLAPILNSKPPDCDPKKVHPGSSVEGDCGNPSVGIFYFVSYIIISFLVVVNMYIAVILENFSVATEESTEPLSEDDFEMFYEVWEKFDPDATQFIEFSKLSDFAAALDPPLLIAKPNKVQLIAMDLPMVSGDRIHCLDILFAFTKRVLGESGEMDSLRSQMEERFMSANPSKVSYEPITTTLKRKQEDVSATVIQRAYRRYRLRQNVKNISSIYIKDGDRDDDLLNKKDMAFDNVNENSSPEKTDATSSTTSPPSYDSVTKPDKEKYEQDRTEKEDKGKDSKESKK

| SMILES | target or system | assay | system | conditions | measurement | result |
| --- | --- | --- | --- | --- | --- | --- |
| CCN(Cc1ccccc1)C(=O)CCc1nc(CN2CCN(C(=O)Cc3ccc(OC)c(OC)c3)CC2)no1 | Sodium channel protein type 9 subunit alpha (SCN9A, Homo sapiens, UniProt Q15858) | whole-cell patch clamp | HEK stable | 3 µM | V1/2 of activation | -42.8 ± 1.71 mV |
| N=C(N)NCCC[C@@H]1NC(=O)[C@H](CC(=O)NC23CNCCNCC(N)(CNCCNC2)CNCCNC3)NC(=O)[C@@H](Cc2ccccc2)NC(=O)[C@H](CC(=O)O)NC(=O)CNC1=O [copper-64 labelled] | – | – | Nu/Nu mouse, male, tumour-bearing, muscle | intravenous, 10 µCi, 24 h | tissue uptake | 0.13 ± 0.03 %ID/g |
| CSCC[C@H](NC(=O)[C@H](CC(C)C)NC(=O)[C@H](Cc1c[nH]cn1)NC(=O)CNC(=O)[C@@H](NC(=O)[C@H](C)NC(=O)[C@H](Cc1c[nH]c2ccccc12)NC(=O)[C@H](CCC(N)=O)NC(=O)CCCCCNC(=O)CNC(=O)CNC(=O)CNC(=O)CSC(C)=O)C(C)C)C(N)=O [technetium-99m labelled] | – | – | nude mouse, PC-3 xenograft, heart | 90 min, added: excess unlabelled conjugate | tissue uptake | 0.09 ± 0.02 %ID/g |
| CCCC[C@H](NC(=O)COCCOCCNC(=O)c1ccc(NN)nc1)C(=O)N[C@H]1CC(=O)NCCCC[C@@H](C(N)=O)NC(=O)[C@H](Cc2c[nH]c3ccccc23)NC(=O)[C@H](CCCNC(=N)N)NC(=O)[C@@H](Cc2ccccc2)NC(=O)[C@H](Cc2c[nH]cn2)NC1=O [technetium-99m labelled] | – | – | C57 mouse, female, B16/F1 melanoma, kidneys | intravenous, 0.037 MBq, 2 h | tissue uptake | 5.79 ± 1.79 %ID/g |
| C[C@@H](O)[C@H](NC(=O)[C@@H]1CSSC[C@H](NC(=O)[C@@H](Cc2ccccc2)NC(=O)CN2CCCN3CCN(CCCN(CP(=O)(O)O)CC3)CC2)C(=O)N[C@@H](Cc2ccc(O)cc2)C(=O)N[C@H](Cc2c[nH]c3ccccc23)C(=O)N[C@@H](CCCCN)C(=O)N[C@@H]([C@@H](C)O)C(=O)N1)C(=O)O [copper-64 labelled] | – | – | Lewis rat, male, tumour-bearing, adrenals | injection, 4 h | tissue uptake | 8.6 ± 0.2 %ID/g |
| CCCC[C@H](NC(=O)CCCCCCCNC(=O)c1ccc(NN)nc1)C(=O)N[C@H]1CC(=O)NCCCC[C@@H](C(N)=O)NC(=O)[C@H](Cc2c[nH]c3ccccc23)NC(=O)[C@H](CCCNC(=N)N)NC(=O)[C@@H](Cc2ccccc2)NC(=O)[C@H](Cc2c[nH]cn2)NC1=O [technetium-99m labelled] | – | – | C57 mouse, B16/F1 melanoma, muscle | 2 h, added: L-lysine 12 mg co-injected | tissue uptake | 0.07 ± 0.06 %ID/g |
| CC(=O)NC(Cc1ccc(Br)c(Cl)c1)C(=O)N[C@@H](C)C(=O)N1CCC[C@H]1C(=O)N1CCC[C@H]1C(=O)N[C@@H](CCC(=O)O)C(=O)N[C@@H](Cc1c[nH]cn1)C(=O)N[C@@H](CO)C(=O)N[C@H](C(=O)N[C@@H](C)C(N)=O)[C@@H](C)OP(=O)(O)O (stereo partly drawn) | Hepatocyte growth factor receptor (MET, Homo sapiens, UniProt P08581) | – | – | 10 µM | inhibition | 2.82 ± 0.14% |
| CCCNC(=O)[C@H](CC(C)C)NC(=O)[C@H](Cc1c[nH]cn1)NC(=O)CNC(=O)[C@@H](NC(=O)[C@H](C)NC(=O)[C@H](Cc1c[nH]c2ccccc12)NC(=O)[C@H](CCC(N)=O)NC(=O)[C@@H](Cc1ccccc1)NC(=O)CCCCCNC(=O)CN1CCN(CC(=O)O)CCN(CC(=O)O)CCN(CC(=O)O)CC1)C(C)C [indium-111 labelled] | Gastrin-releasing peptide receptor (Mus musculus, UniProt P21729) | biodistribution | CF-1 mice, pancreas | intravenous, 1 h, added: bombesin 100 µg, blocking | tissue uptake | 0.2 ± 0.01 %ID/g |
| CSCC[C@H](NC(=O)[C@H](CC(C)C)NC(=O)[C@H](Cc1c[nH]cn1)NC(=O)CNC(=O)[C@@H](NC(=O)[C@H](C)NC(=O)[C@H](Cc1c[nH]c2ccccc12)NC(=O)[C@H](CCC(N)=O)NC(=O)CCCCNC(=O)CSCCSCCP(CO)CO)C(C)C)C(N)=O [technetium-99m labelled] | – | – | female CF-1 mouse, whole blood | intravenous, 4 h, blood volume as 6.5% body weight | tissue uptake | 0.43 %ID |
| N=C(N)NCCC[C@@H]1NC(=O)[C@H](CCCCNC(=O)CNC(=O)CNC(=O)CNC(=O)CC[C@H](NC(=O)CCOCCOCCOCCOCCNC(=O)CC[C@H](NC(=O)CN2CCN(CC(=O)O)CCN(CC(=O)O)CCN(CC(=O)O)CC2)C(=O)NCCOCCOCCOCCOCCC(=O)N[C@@H](CCC(=O)NCC(=O)NCC(=O)NCC(=O)NCCCC[C@@H]2NC(=O)[C@@H](Cc3ccccc3)NC(=O)[C@H](CC(=O)O)NC(=O)CNC(=O)[C@H](CCCNC(=N)N)NC2=O)C(=O)NCC(=O)NCC(=O)NCC(=O)NCCCC[C@@H]2NC(=O)[C@@H](Cc3ccccc3)NC(=O)[C@H](CC(=O)O)NC(=O)CNC(=O)[C@H](CCCNC(=N)N)NC2=O)C(=O)NCC(=O)NCC(=O)NCC(=O)NCCCC[C@@H]2NC(=O)[C@@H](Cc3ccccc3)NC(=O)[C@H](CC(=O)O)NC(=O)CNC(=O)[C@H](CCCNC(=N)N)NC2=O)NC(=O)[C@@H](Cc2ccccc2)NC(=O)[C@H](CC(=O)O)NC(=O)CNC1=O [indium-111 labelled] | – | – | female athymic nude mice, lungs | intravenous, 3 µCi, 1 h, U-87 MG glioma xenograft | tissue uptake | 2.38 ± 0.28 %ID/g |
| COc1cc(C(=O)NCCOCCOCCOCCNC(=O)c2ccc([18F])nc2)ccc1NC(=O)C1NC(CC(C)(C)C)C(C#N)(c2ccc(Cl)cc2F)C1c1cccc(Cl)c1F (stereo not drawn) | HepG2 tumour model | – | host not given, spleen | 4 h, tumour-bearing | tracer uptake | 0.31 %ID/g |
| CCCC[C@H](NC(=O)CNC(=O)CNC(=O)c1ccc(NN)nc1)C(=O)N[C@H]1CC(=O)NCCCC[C@@H](C(N)=O)NC(=O)[C@H](Cc2c[nH]c3ccccc23)NC(=O)[C@H](CCCNC(=N)N)NC(=O)[C@@H](Cc2ccccc2)NC(=O)[C@H](Cc2c[nH]cn2)NC1=O [technetium-99m labelled] | – | – | C57 mouse, B16/F1 melanoma-bearing, spleen | intravenous, 0.5 h | tissue uptake | 0.99 ± 0.1 %ID/g |
| N=C(N)NCCC[C@@H]1NC(=O)[C@H](CCCCNC(=O)CC[C@H](NC(=O)CCOCCOCCOCCOCCNC(=O)CC[C@H](NC(=O)CN2CCN(CC(=O)O)CCN(CC(=O)O)CCN(CC(=O)O)CC2)C(=O)NCCOCCOCCOCCOCCC(=O)N[C@@H](CCC(=O)NCCCC[C@@H]2NC(=O)[C@@H](Cc3ccccc3)NC(=O)[C@H](CC(=O)O)NC(=O)CNC(=O)[C@H](CCCNC(=N)N)NC2=O)C(=O)NCCCC[C@@H]2NC(=O)[C@@H](Cc3ccccc3)NC(=O)[C@H](CC(=O)O)NC(=O)CNC(=O)[C@H](CCCNC(=N)N)NC2=O)C(=O)NCCCC[C@@H]2NC(=O)[C@@H](Cc3ccccc3)NC(=O)[C@H](CC(=O)O)NC(=O)CNC(=O)[C@H](CCCNC(=N)N)NC2=O)NC(=O)[C@@H](Cc2ccccc2)NC(=O)[C@H](CC(=O)O)NC(=O)CNC1=O [indium-111 labelled] | – | – | female athymic nude mice, heart | intravenous, 3 µCi, 1 h, U-87 MG glioma xenograft | tissue uptake | 0.86 ± 0.22 %ID/g |
| CN[C@](C)(C[18F])C(=O)O | DU-145 tumour model | – | host not given, heart | 2 h, tumour-bearing | tracer uptake | 2.3 %ID/g |
| N=C(N)NCCC[C@@H]1NC(=O)[C@H](CCCCNC(=O)CCOCCOCCOCCOCCNC(=O)CC[C@H](NC(=O)CCOCCOCCOCCOCCNC(=O)CC[C@H](NC(=O)CN2CCN(CC(=O)O)CCN(CC(=O)O)CCN(CC(=O)O)CC2)C(=O)NCCOCCOCCOCCOCCC(=O)N[C@@H](CCC(=O)NCCOCCOCCOCCOCCC(=O)NCCCC[C@@H]2NC(=O)[C@@H](Cc3ccccc3)NC(=O)[C@H](CC(=O)O)NC(=O)CNC(=O)[C@H](CCCNC(=N)N)NC2=O)C(=O)NCCOCCOCCOCCOCCC(=O)NCCCC[C@@H]2NC(=O)[C@@H](Cc3ccccc3)NC(=O)[C@H](CC(=O)O)NC(=O)CNC(=O)[C@H](CCCNC(=N)N)NC2=O)C(=O)NCCOCCOCCOCCOCCC(=O)NCCCC[C@@H]2NC(=O)[C@@H](Cc3ccccc3)NC(=O)[C@H](CC(=O)O)NC(=O)CNC(=O)[C@H](CCCNC(=N)N)NC2=O)NC(=O)[C@@H](Cc2ccccc2)NC(=O)[C@H](CC(=O)O)NC(=O)CNC1=O [indium-111 labelled] | – | – | female athymic nude mice, muscle | intravenous, 3 µCi, 24 h, U-87 MG glioma xenograft | tissue uptake | 0.52 ± 0.05 %ID/g |
| CSCC[C@H](NC(=O)[C@H](CC(C)C)NC(=O)[C@H](Cc1c[nH]cn1)NC(=O)CNC(=O)[C@@H](NC(=O)[C@H](C)NC(=O)[C@H](Cc1c[nH]c2ccccc12)NC(=O)[C@H](CCC(N)=O)NC(=O)CCCCCCCNC(=O)CCC(=O)Nc1ccc(CNC23CNCCNCC(N)(CNCCNC2)CNCCNC3)cc1)C(C)C)C(N)=O [copper-64 labelled] | – | – | female SCID mice, PC-3 xenograft, pancreas | intravenous, 1 h, added: 100 µg Tyr4-bombesin blocking | tissue uptake | 3.2 ± 0.2 %ID/g |
| N=C(N)NCCC[C@@H]1NC(=O)[C@H](CCCCNC(=O)CCOCCOCCOCCOCCNC(=O)CN2CCN(CC(=O)O)CCN(CC(=O)O)CCN(CC(=O)O)CC2)NC(=O)[C@@H](Cc2ccccc2)NC(=O)[C@H](CC(=O)O)NC(=O)CNC1=O [indium-111 labelled] | – | – | female athymic nude mice, muscle | intravenous, 3 µCi, 0.5 h, U-87 MG glioma xenograft | tissue uptake | 1.2 ± 0.35 %ID/g |
| NCCCC[C@H](NC(=O)[C@@H](N)CCCCN)C(=O)NCC(=O)NCC(=O)NCCCCCCCCNC(=O)c1ccc(-c2ccccn2)cc1 | Jurkat | – | – | 25 µM, 1 h, 37 °C | cellular uptake of iridium | 6.26 ± 0.31 fmol/cell |

Excerpt of the above:
| SMILES | target or system | assay | system | conditions | measurement | result |
| --- | --- | --- | --- | --- | --- | --- |
| N=C(N)NCCC[C@@H]1NC(=O)[C@H](CCCCNC(=O)CNC(=O)CNC(=O)CNC(=O)CC[C@H](NC(=O)CCOCCOCCOCCOCCNC(=O)CC[C@H](NC(=O)CN2CCN(CC(=O)O)CCN(CC(=O)O)CCN(CC(=O)O)CC2)C(=O)NCCOCCOCCOCCOCCC(=O)N[C@@H](CCC(=O)NCC(=O)NCC(=O)NCC(=O)NCCCC[C@@H]2NC(=O)[C@@H](Cc3ccccc3)NC(=O)[C@H](CC(=O)O)NC(=O)CNC(=O)[C@H](CCCNC(=N)N)NC2=O)C(=O)NCC(=O)NCC(=O)NCC(=O)NCCCC[C@@H]2NC(=O)[C@@H](Cc3ccccc3)NC(=O)[C@H](CC(=O)O)NC(=O)CNC(=O)[C@H](CCCNC(=N)N)NC2=O)C(=O)NCC(=O)NCC(=O)NCC(=O)NCCCC[C@@H]2NC(=O)[C@@H](Cc3ccccc3)NC(=O)[C@H](CC(=O)O)NC(=O)CNC(=O)[C@H](CCCNC(=N)N)NC2=O)NC(=O)[C@@H](Cc2ccccc2)NC(=O)[C@H](CC(=O)O)NC(=O)CNC1=O [indium-111 labelled] | – | – | female athymic nude mice, lungs | intravenous, 3 µCi, 1 h, U-87 MG glioma xenograft | tissue uptake | 2.38 ± 0.28 %ID/g |
| N=C(N)NCCC[C@@H]1NC(=O)[C@H](CC(=O)NC23CNCCNCC(N)(CNCCNC2)CNCCNC3)NC(=O)[C@@H](Cc2ccccc2)NC(=O)[C@H](CC(=O)O)NC(=O)CNC1=O [copper-64 labelled] | – | – | Nu/Nu mouse, male, tumour-bearing, muscle | intravenous, 10 µCi, 24 h | tissue uptake | 0.13 ± 0.03 %ID/g |
| CC(=O)NC(Cc1ccc(Br)c(Cl)c1)C(=O)N[C@@H](C)C(=O)N1CCC[C@H]1C(=O)N1CCC[C@H]1C(=O)N[C@@H](CCC(=O)O)C(=O)N[C@@H](Cc1c[nH]cn1)C(=O)N[C@@H](CO)C(=O)N[C@H](C(=O)N[C@@H](C)C(N)=O)[C@@H](C)OP(=O)(O)O (stereo partly drawn) | Hepatocyte growth factor receptor (MET, Homo sapiens, UniProt P08581) | – | – | 10 µM | inhibition | 2.82 ± 0.14% |
